Assay results gathered from unrelated publications.
Each line is one published result; not all experiments were run side by side. ± gives the spread as reported.
USP33 ZnF-UBD domain: Ubiquitin carboxyl-terminal hydrolase 33, ZnF-UBD domain (USP33, Homo sapiens, UniProt Q8TEY7)
UniProt Q8TEY7, sequence (whole entry, looked up): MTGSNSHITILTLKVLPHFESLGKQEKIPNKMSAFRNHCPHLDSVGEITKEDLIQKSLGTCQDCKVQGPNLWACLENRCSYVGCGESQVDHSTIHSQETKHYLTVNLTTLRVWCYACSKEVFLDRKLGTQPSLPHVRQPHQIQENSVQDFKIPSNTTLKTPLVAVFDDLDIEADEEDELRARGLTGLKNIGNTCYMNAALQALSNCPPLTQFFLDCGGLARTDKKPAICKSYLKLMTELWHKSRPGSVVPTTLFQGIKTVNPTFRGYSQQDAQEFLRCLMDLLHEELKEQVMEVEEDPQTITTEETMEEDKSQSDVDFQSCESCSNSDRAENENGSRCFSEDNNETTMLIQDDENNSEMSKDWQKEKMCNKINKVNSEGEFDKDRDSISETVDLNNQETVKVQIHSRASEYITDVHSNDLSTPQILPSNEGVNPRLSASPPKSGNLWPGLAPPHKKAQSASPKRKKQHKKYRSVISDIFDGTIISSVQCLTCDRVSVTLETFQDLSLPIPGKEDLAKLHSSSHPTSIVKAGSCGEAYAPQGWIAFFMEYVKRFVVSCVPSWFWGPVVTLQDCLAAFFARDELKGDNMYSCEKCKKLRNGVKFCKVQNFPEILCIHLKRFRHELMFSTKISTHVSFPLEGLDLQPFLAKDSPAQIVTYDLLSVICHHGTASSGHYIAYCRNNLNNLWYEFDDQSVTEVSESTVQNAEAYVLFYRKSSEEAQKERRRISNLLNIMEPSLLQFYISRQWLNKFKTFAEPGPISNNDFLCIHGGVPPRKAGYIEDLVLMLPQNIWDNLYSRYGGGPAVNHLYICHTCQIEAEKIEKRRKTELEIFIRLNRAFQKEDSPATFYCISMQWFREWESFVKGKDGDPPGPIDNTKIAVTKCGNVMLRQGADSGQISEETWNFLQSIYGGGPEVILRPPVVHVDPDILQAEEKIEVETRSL
SRC SH2 domain: Proto-oncogene tyrosine-protein kinase Src, SH2 domain (SRC, Homo sapiens, UniProt P12931)
UDP-3-O-acyl-N-acetylglucosamine deacetylase C40S: UDP-3-O-acyl-N-acetylglucosamine deacetylase (Pseudomonas aeruginosa, UniProt P47205, C40S)
VPS26A/VPS35/VPS29: VPS26A/VPS35/VPS29 (Homo sapiens, UniProt O75436+Q96QK1+Q9UBQ0)
UniProt P02716, sequence (whole entry, unmodified, looked up): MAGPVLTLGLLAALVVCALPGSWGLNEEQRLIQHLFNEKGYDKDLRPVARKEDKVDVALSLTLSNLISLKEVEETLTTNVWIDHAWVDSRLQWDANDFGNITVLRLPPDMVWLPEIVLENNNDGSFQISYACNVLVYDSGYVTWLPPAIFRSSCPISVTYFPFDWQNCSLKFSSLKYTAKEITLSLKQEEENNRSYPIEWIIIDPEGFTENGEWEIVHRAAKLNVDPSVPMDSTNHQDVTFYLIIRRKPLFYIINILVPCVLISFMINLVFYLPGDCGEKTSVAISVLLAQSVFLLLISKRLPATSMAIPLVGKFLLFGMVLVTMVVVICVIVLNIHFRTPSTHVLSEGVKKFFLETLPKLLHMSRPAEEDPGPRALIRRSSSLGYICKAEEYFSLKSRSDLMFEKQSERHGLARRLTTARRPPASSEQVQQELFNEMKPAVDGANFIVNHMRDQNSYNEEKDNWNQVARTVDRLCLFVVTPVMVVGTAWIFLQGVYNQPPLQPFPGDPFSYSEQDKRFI
UniProt P20782, sequence (whole entry, unmodified, looked up): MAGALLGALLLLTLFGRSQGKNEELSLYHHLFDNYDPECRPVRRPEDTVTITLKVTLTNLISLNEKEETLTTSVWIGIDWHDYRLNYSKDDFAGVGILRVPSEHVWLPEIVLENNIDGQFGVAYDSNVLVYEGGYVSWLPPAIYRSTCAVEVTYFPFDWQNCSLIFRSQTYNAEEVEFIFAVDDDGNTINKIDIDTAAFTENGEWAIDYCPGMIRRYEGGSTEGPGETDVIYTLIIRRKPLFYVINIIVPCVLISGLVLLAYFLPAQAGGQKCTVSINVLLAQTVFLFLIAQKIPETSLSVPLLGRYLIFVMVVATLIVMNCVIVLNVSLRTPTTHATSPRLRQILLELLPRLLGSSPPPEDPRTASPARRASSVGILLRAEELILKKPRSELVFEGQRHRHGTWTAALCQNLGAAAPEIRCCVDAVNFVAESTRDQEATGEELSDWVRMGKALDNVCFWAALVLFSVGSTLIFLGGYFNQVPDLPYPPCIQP
UniProt P04756, sequence (whole entry, unmodified, looked up): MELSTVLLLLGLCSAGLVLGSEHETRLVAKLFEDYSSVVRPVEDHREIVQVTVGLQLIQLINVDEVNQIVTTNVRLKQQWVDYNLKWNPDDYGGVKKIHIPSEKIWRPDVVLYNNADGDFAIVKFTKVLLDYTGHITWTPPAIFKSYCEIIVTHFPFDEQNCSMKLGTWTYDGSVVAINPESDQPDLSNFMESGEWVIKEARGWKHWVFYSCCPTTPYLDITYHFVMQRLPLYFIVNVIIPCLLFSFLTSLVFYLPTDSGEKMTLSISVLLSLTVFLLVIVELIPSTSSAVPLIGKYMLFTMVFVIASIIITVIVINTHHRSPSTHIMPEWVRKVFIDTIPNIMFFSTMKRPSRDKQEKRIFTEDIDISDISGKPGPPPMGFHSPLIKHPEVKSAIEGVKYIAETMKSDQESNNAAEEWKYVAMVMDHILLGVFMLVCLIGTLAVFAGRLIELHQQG
UniProt Q55080, sequence (whole entry, unmodified, looked up): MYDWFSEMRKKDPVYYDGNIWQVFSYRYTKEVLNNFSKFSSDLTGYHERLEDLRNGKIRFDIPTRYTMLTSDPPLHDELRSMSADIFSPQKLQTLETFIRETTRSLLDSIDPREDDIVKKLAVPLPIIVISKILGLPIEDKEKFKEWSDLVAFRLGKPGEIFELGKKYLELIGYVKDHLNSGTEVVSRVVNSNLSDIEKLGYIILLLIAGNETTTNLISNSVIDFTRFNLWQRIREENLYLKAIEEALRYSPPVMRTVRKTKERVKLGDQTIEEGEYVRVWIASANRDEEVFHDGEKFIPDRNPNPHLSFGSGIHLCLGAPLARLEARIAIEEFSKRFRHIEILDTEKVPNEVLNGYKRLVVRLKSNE
UniProt Q9NZQ7, sequence (whole entry, looked up): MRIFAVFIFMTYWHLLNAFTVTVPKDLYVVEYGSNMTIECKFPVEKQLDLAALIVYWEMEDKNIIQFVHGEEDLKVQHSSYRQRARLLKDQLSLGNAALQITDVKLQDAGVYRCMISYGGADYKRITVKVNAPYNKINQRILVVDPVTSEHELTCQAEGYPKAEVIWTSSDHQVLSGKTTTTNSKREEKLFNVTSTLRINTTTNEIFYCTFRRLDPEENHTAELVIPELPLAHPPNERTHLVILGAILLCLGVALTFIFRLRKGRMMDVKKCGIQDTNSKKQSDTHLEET
UniProt F4KU78, sequence (whole entry, looked up): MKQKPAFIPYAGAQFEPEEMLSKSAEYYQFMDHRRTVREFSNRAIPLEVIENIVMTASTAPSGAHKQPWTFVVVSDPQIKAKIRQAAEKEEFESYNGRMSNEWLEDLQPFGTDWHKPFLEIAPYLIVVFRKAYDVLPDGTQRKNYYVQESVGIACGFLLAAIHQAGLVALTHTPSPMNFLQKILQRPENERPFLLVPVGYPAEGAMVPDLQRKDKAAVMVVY
UniProt Q9NP31, sequence (whole entry, looked up): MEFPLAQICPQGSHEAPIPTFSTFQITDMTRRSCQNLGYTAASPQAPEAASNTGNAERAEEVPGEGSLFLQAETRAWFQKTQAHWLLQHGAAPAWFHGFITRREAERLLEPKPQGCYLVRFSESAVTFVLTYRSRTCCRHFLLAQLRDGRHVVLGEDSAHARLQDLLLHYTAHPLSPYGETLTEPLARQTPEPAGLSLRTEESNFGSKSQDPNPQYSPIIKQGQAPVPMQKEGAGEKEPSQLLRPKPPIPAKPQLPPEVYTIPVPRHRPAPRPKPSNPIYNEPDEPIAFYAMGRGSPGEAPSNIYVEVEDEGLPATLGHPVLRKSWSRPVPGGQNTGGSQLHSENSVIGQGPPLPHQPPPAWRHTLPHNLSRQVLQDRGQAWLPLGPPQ
UniProt P11509, sequence (whole entry, looked up): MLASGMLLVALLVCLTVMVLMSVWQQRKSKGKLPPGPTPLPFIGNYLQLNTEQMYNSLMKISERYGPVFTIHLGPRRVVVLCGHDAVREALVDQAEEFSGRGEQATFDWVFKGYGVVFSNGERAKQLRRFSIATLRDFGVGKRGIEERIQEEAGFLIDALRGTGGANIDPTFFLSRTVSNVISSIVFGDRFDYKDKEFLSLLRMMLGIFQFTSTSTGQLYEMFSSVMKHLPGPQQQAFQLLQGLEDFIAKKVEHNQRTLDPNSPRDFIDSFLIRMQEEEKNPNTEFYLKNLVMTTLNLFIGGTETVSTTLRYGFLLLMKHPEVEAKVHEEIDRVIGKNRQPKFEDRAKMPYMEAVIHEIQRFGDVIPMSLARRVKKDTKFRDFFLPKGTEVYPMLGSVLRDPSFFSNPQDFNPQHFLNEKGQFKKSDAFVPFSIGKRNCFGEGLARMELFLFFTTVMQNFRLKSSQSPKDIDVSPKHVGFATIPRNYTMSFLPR

Compound	target	assay	test system	conditions	Kd
Nc1ncnc2c1ncn2[C@@H]1O[C@H](COP(=O)(O)OP(=O)(O)NP(=O)(O)O)[C@@H](O)[C@H]1O	Cell cycle histidine kinase CckA, cytoplasmic region (Caulobacter vibrioides, UniProt Q9X688)	isothermal titration calorimetry	Caulobacter crescentus	12 °C, together with: c-di-GMP 100 µM	57 µM
O=C(O)CNC(=O)c1cccnc1	USP33 ZnF-UBD domain	–	–	–	514 µM
C[N+](C)(C)C	Chrnd/Chrna1/Chrne (Mus musculus, UniProt P02716+P04756+P20782, G173A/S470W)	single-channel kinetics	–	A chain side site	39 µM
CSCC[C@H](NC(=O)[C@H](Cc1ccc(OP(=O)(O)O)cc1)NC(=O)CNC(=O)CNC(=O)[C@H](CC(=O)O)NC(=O)[C@H](CO)NC(=O)[C@H](CCC(=O)O)NC(=O)CNC(=O)[C@@H](NC(=O)[C@H](CC(C)C)NC(=O)[C@H](CO)NC(=O)c1ccc2c(c1)C(=O)OC21c2ccc(N(C)C)cc2Oc2cc(N(C)C)ccc21)[C@@H](C)O)C(=O)N[C@@H](CC(=O)O)C(=O)N[C@@H](CCSC)C(=O)N[C@@H](CO)C(=O)N[C@@H](CCCCN)C(=O)N[C@@H](CC(=O)O)C(=O)N[C@@H](CCC(=O)O)C(=O)N[C@@H](CC(=O)O)C(=O)O	SRC SH2 domain	binding	–	–	0.342 µM
C[C@@H](O)[C@H](NC(=O)c1ccc(-c2ccc(Br)cc2)cc1)C(=O)NCC1(C)NC(=O)NC1=O (stereo partly shown)	UDP-3-O-acyl-N-acetylglucosamine deacetylase C40S	binding	–	–	> 100 µM
CC[C@H](C)[C@H](NC(=O)c1ccc2c(c1)C(=O)OC21c2ccc(N(C)C)cc2Oc2cc(N(C)C)ccc21)C(=O)N[C@@H](Cc1ccccc1)C(=O)N[C@@H](CO)C(=O)N[C@H](C(=O)N[C@@H](Cc1ccccc1)C(=O)N[C@H](C(=O)NCC(=O)N[C@@H](CCC(=O)O)C(=O)N[C@@H](Cc1c[nH]cn1)C(=O)N[C@@H](Cc1ccc(OP(=O)(O)O)cc1)C(=O)N[C@H](C(=O)N[C@@H](Cc1c[nH]cn1)C(=O)N[C@H](C(=O)N[C@@H](CC(N)=O)C(=O)N[C@@H](C)C(=O)N[C@H](C(=O)N[C@@H](Cc1ccc(O)cc1)C(=O)N[C@@H](CC(=O)O)C(=O)O)[C@@H](C)O)C(C)C)C(C)C)[C@@H](C)CC)[C@@H](C)O	SRC SH2 domain	binding	–	–	0.201 µM
CC[C@@H](C)[C@@H](NC(=O)[C@@H](Cc1ccc(O)cc1)NC(=O)[C@H]1CCCN1C(=O)[C@@H](CCCNC(=N)N)NC(=O)[C@H](N)Cc1c[nH]cn1)C(=O)N[C@H](C)C(=O)N[C@H](Cc1c[nH]cn1)C(=O)N[C@H](CCCNC(=N)N)C(=O)N[C@@H](C(=O)N[C@H](Cc1ccc(O)cc1)C(=O)N[C@H](CO)C(=O)N[C@H](Cc1ccccc1)C(N)=O)C(C)C	CD274 (Homo sapiens, UniProt Q9NZQ7)	microscale thermophoresis	–	6 h, His-tagged protein	5.8 ± 1 µM
CSCC[C@H](NC(=O)CNC(=O)[C@H](Cc1ccccc1)NC(=O)[C@H](CC(=O)O)NC(=O)CNC(=O)c1ccc2c(c1)C(=O)OC21c2ccc(N(C)C)cc2Oc2cc(N(C)C)ccc21)C(=O)N[C@@H](CO)C(=O)N[C@@H](CCCNC(=N)N)C(=O)N[C@@H](CC(=O)O)C(=O)N[C@H](C(=O)N[C@@H](Cc1ccc(OP(=O)(O)O)cc1)C(=O)N[C@@H](CO)C(=O)N[C@H](C(=O)N[C@@H](CC(=O)O)C(=O)N[C@@H](Cc1ccc(O)cc1)C(=O)N[C@@H](Cc1ccc(O)cc1)C(=O)N[C@@H](CCCNC(=N)N)C(=O)N[C@H](C(=O)N[C@@H](CC(=O)O)C(=O)O)C(C)C)[C@@H](C)O)C(C)C	SH2 domain-containing protein 2A, SH2 domain (SH2D2A, Homo sapiens, UniProt Q9NP31)	–	–	–	1.6 µM
CC(=O)N[C@@H](CC(N)=O)C(=O)N[C@@H](CC(C)C)C(=O)NCC(=O)N[C@@H](CCCCN)C(=O)N[C@@H](Cc1c[nH]cn1)C(=O)N[C@@H](CCC(=O)O)C(=O)N[C@@H](CCCCN)C(=O)N[C@@H](Cc1ccccc1)C(=O)N[C@@H](CO)C(=O)N[C@@H](CCC(=O)O)C(=O)N[C@H](C(=O)N[C@@H](CC(C)C)C(=O)N[C@@H](CCCCN)C(=O)N[C@@H](CCCNC(=N)N)C(=O)N[C@@H](CC(C)C)C(=O)N[C@@H](CCCNC(=N)N)C(=O)N[C@@H](CC(C)C)C(=O)N[C@@H](CCC(N)=O)C(N)=O)C(C)C	Calmodulin-1 (CALM1, Homo sapiens, UniProt P0DP23)	isothermal titration calorimetry	full-length calmodulin	single average binding constant, together with: 1 mM CaCl2	1.56 µM
O=C(O)CCCN1CC=C(c2ccccc2)CC1	USP33 ZnF-UBD domain	–	–	–	> 1000 µM
O=C(NO)[C@H]1COC(c2ccc(OC(F)(F)F)c(Cl)c2)=N1	UDP-3-O-acyl-N-acetylglucosamine deacetylase C40S	binding, thermal shift	–	pH 7.0, equimolar ZnCl2	3.8 µM
CC[C@H](C)[C@@H]1NC(=O)[C@H](Cc2c[nH]c3ccccc23)NC(=O)[C@H](Cc2ccc(O)cc2)NC(=O)CSC[C@@H](C(N)=O)NC(=O)[C@H]([C@@H](C)O)NC(=O)[C@H](CO)NC(=O)[C@H](C(C)C)NC(=O)[C@H](Cc2ccc(O)cc2)NC(=O)[C@H](CCCNC(=N)N)NC(=O)[C@H](Cc2ccc(O)cc2)NC(=O)[C@H]([C@@H](C)O)NC(=O)[C@H]([C@@H](C)O)NC(=O)[C@H](Cc2c[nH]c3ccccc23)NC(=O)[C@H](CO)NC(=O)[C@H](CC(N)=O)NC(=O)[C@H](CO)NC1=O	VPS26A/VPS35/VPS29	binding	–	–	0.273 ± 0.007 µM
CCC1=C(C)C2=Cc3c(C)c(CCC(=O)O)c4[n]3[Ir-2]35([CH3])[n]6c(c(C)c(CC)c6=CC6=[N+]3C(=C4)C(CCC(=O)O)=C6C)=CC1=[N+]25	Cytochrome P450 119 (cyp119, Sulfolobus acidocaldarius, UniProt Q55080, L155W/T213G/V254L/C317G)	binding	–	–	4.1 µM
N[C@@H](Cc1ccc(O)c(I)c1)C(=O)O	Iodotyrosine deiodinase (Haliscomenobacter hydrossis, UniProt F4KU78)	binding	–	–	12 ± 1 µM
Cc1cccc(C)c1NC(=O)[C@@H]1CCCCN1C	Sodium channel protein type 4 alpha, BTX-activated (Oryctolagus cuniculus, UniProt G1SLL9)	binding	–	–	1200 µM
CC1(CNC(=O)c2ccc(-c3ccccc3)cc2)NC(=O)NC1=O (stereo not shown)	UDP-3-O-acyl-N-acetylglucosamine deacetylase C40S	binding	–	–	> 100 µM
c1cncc([C@@H]2CCCCN2)c1	Chrnd/Chrna1/Chrne (Mus musculus, UniProt P02716+P04756+P20782)	resting state binding, single-channel kinetics	cell-attached patch	AChR wild type	234 µM
CC[C@H](C)[C@H](NC(=O)[C@H](CC(N)=O)NC(=O)[C@@H](N)CO)C(=O)N[C@@H](Cc1ccccc1)C(=O)N[C@@H](CC(=O)O)C(=O)N[C@@H](CC(=O)O)C(=O)N1CCC[C@H]1C(=O)N[C@@H](CC(C)C)C(=O)N[C@@H](CC(N)=O)C(=O)N[C@@H](C)C(=O)N[C@@H](Cc1ccccc1)C(=O)NCC(=O)NCC(=O)N[C@@H](CCC(N)=O)C(=O)O	VPS26A/VPS35/VPS29	binding, ITC	–	pH 7.5, together with: FAM21 peptides	26.8 ± 4.3 µM
Oc1ccc(Sc2ccc(O)cc2)cc1	Heat shock protein 90 homolog (Candida albicans, UniProt P46598)	binding, fluorescence polarization competition	–	3 h, room temperature, together with: geldanamycin-FITC 5 nM	45.6 ± 17 µM
CCCCCCCC(=O)OC[C@H](COP(=O)(O)O[C@@H]1[C@H](O)[C@H](OP(=O)(O)O)[C@@H](O)[C@H](O)[C@H]1O)OC(=O)CCCCCCC	PP2C family protein phosphatase (Vibrio splendidus, UniProt A0ABV4LX41, I196A)	–	–	–	0.95 ± 0.008 µM
CC(C)(C)C(=O)C(Oc1ccc(Cl)cc1)n1ccnc1 (stereo not shown)	Cytochrome P450 2A6 (CYP2A6, Homo sapiens, UniProt P11509)	binding	–	20 min, pH 7.4, purified protein, 2% DMSO	33.8 µM
C[S+](CC[C@H](N)C(=O)O)C[C@H]1O[C@@H](n2cnc3c(N)ncnc32)[C@H](O)[C@@H]1O (stereo partly shown)	kamB (Streptoalloteichus tenebrarius, UniProt P25920)	–	–	–	~80 µM
O=[N+]([O-])c1ccc2c(N=Nc3ccc4ccccc4c3O)c(O)cc(S(=O)(=O)O)c2c1	Diphosphomevalonate decarboxylase (Staphylococcus epidermidis, UniProt Q9FD73, W153F)	–	–	–	0.2 ± 0.015 µM
C[C@@H](O)[C@H](NC(=O)c1ccc(C#Cc2ccccc2)cc1)C(=O)NCC1(C)NC(=O)NC1=O (stereo partly shown)	UDP-3-O-acyl-N-acetylglucosamine deacetylase C40S	binding	–	–	> 100 µM
NC(=O)c1cccnc1	Nicotinamide N-methyltransferase, SAM-bound (Rattus norvegicus, UniProt A0ABK0M0V0)	substrate, SPR	–	37 °C, together with: SAM	200 µM

Repeated from above:
Compound	target	assay	test system	conditions	Kd
CCC1=C(C)C2=Cc3c(C)c(CCC(=O)O)c4[n]3[Ir-2]35([CH3])[n]6c(c(C)c(CC)c6=CC6=[N+]3C(=C4)C(CCC(=O)O)=C6C)=CC1=[N+]25	Cytochrome P450 119 (cyp119, Sulfolobus acidocaldarius, UniProt Q55080, L155W/T213G/V254L/C317G)	binding	–	–	4.1 µM
CCCCCCCC(=O)OC[C@H](COP(=O)(O)O[C@@H]1[C@H](O)[C@H](OP(=O)(O)O)[C@@H](O)[C@H](O)[C@H]1O)OC(=O)CCCCCCC	PP2C family protein phosphatase (Vibrio splendidus, UniProt A0ABV4LX41, I196A)	–	–	–	0.95 ± 0.008 µM
CC[C@H](C)[C@@H]1NC(=O)[C@H](Cc2c[nH]c3ccccc23)NC(=O)[C@H](Cc2ccc(O)cc2)NC(=O)CSC[C@@H](C(N)=O)NC(=O)[C@H]([C@@H](C)O)NC(=O)[C@H](CO)NC(=O)[C@H](C(C)C)NC(=O)[C@H](Cc2ccc(O)cc2)NC(=O)[C@H](CCCNC(=N)N)NC(=O)[C@H](Cc2ccc(O)cc2)NC(=O)[C@H]([C@@H](C)O)NC(=O)[C@H]([C@@H](C)O)NC(=O)[C@H](Cc2c[nH]c3ccccc23)NC(=O)[C@H](CO)NC(=O)[C@H](CC(N)=O)NC(=O)[C@H](CO)NC1=O	VPS26A/VPS35/VPS29	binding	–	–	0.273 ± 0.007 µM
